Measurements from different studies.
A part holds a random share of what one study measured.

Set 1
Target: RNA binding protein fox-1 homolog 2, RRM domain, GST-SBP tag (RBFOX2, Homo sapiens, UniProt O43251-10, residues 100-194)
Method: RNA Bind-n-Seq
Molecule type: RNA
Medium: in vitro
Tested at: 365 nM
Setting: natural RNA segment, single round, ends assumed
Baseline: no-protein control
Direction: higher = stronger binding
All sequences stand within: GGGAGUUCUACAGUCCGACGAUC … UGGAAUUCUCGGGUGCCAA
Residues (chain): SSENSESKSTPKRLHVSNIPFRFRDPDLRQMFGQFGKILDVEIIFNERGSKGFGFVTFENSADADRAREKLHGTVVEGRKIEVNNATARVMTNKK
Sequence | RBNS enrichment (R)
CAGUGUGUUAACUGCUUAUCAGCUAUUCAGACAUCUCCAUGGUUUCUCCAUGAAACUCUGUGGUUUCAUCAUUCCUUCUUAGUUGACCUGCACAGCUUGGUUAGACCUAG | 0.301
CCCCGACCUGACACCUCAUAUGAUCUCUGCUUCUAAAAAUCAGGUGUGAUCCUACUUGAAAACAACCCUUGAGGAGGGCGCCUCGGUCACUGUGAGCAUGUCAGAGGCUU | 3
GCCUCUUCUCAGAGUUCAGGAAAAACAGUAGUGCCACUUGAGACCUCGUAGAGGAGGUAUACGUGGCUGCCUUAGUAUUCUGUUCCUCAUGAUUAUUUUAGAAACUGGAU | 0.427
GUGAUUCUGCUCUCCAGGGACGGUUGGCACCUUCCUCGGGGGCGGGCCCCACGCACCCCAGAACACACAGACCCACCUUUCUGGCGUUCUUUCUACCUCCCUUUUCGUUG | 0.462
GAAAUGAAAAUAUCCUUUUUUAAAAUAUGUGGAAGUAAUUUGGGUAUAAUUAGUUUUUUUCUACCUUUUGGAAAGUUGUUUUUUUGUUGUUUUUUUUUUUUUCCCAGAUG | 1.88
CCACCUGCCUCUAAUCUGAGCUGCAGCCUGGCUGGUCCUCCCAUUUCUAAAGCUGAAUGUCAAACAGUGCCAAAUGCUGGGGCAGGGGGUGAAGAACCCUCUGUCCCACC | 0.691
UUAUCCUAGUGAGGUCAUUAUCAGGAGUUGCCAUAUCAUCUCUCCAGUACCUAACAUUUCUCAUCCACUUCAAAAGCUGUUCUGACUGCCAGCUGGCUGAUCUAAGCUCC | 0.356
UCCUACCACUGAGCGCCUUUGCCAGGUCCAGCCUGGGCUCAGGUUCCAAGACUCAGCUGCCUAAUCCCAGGGUUGAGCCUUGUGCUCGUGGCGGACCCCAAACCACUGCC | 0.231

Set 2
Target: Sal-like protein 4, full length isoform B (SALL4, Homo sapiens, UniProt Q9UJQ4-2, residues 1-616)
Method: universal PBM
Molecule type: double-stranded DNA, one strand shown
Medium: in vitro
Tested at: not given
Setting: 8-mer, flanks averaged, mean of replicates
Direction: higher = stronger binding
Construct (chain): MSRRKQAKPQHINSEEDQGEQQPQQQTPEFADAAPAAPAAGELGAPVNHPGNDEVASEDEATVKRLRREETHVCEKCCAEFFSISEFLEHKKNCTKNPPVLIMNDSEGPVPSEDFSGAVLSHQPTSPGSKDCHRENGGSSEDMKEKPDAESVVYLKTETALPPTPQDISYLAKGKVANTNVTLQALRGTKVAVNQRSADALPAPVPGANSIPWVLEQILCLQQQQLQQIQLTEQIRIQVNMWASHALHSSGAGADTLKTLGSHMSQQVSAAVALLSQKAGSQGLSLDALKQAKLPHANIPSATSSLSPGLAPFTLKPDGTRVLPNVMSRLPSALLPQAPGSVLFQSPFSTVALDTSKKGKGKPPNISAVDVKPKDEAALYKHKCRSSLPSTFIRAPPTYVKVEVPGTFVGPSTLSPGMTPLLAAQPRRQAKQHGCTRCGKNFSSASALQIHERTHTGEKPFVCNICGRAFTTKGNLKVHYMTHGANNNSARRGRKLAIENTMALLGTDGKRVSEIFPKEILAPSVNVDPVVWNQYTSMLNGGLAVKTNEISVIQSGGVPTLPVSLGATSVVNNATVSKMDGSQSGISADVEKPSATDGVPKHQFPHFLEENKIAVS
Sequence | E-score
GGACCAGA | -0.188
GCAGGTTA | -0.0861
AATATAAC | 0.392
CTAGTAAG | 0.173
CACGTTTA | 0.261
GAAATTCA | 0.183
CAGCTACG | -0.17
GGCAGTCA | -0.0516

Set 3
Target: Replicase polyprotein 1ab, main protease (rep, Severe acute respiratory syndrome coronavirus 2, UniProt P0DTD1)
Observed: enzyme activity
Mode: inhibitor
Tested at: 20 µM
Structure (SMILES) | inhibition [%]
c1ccc2sc(SNC3CCCCC3)nc2c1 | 69.6
COc1ccnc(C[S+]([O-])c2nc3ccc(OC(F)F)cc3[nH]2)c1OC (stereo not drawn) | -9.16
CC(=O)[O][Pt]([NH2])([Cl])([Cl])([NH]C1CCCCC1)[O]C(C)=O | 95.9
C[n+]1c2cc(N)ccc2cc2ccc(N)cc21.Nc1ccc2cc3ccc(N)cc3nc2c1 | 68

Set 4
Cell line: HEK-293T/ACE2
Tested at: 10 µM
Time: 16 h
Baseline: vehicle
Compound | viability
CN(C)C(=O)Oc1ccc[n+](C)c1 | 97.6%
OC(CCCN1CCCCC1)(c1ccccc1)c1ccccc1 | 102%
Cc1ccc(C)c(OCCCC(C)(C)C(=O)O)c1 | 103%
N[C@@H](Cc1ccc(O)c(O)c1)C(=O)O | 101%
NC(=O)N[C@@H](CCC(=O)O)C(=O)O | 98.8%

Set 5
Target: Replicase polyprotein 1ab, nsp13 helicase (rep, Severe acute respiratory syndrome coronavirus 2, UniProt P0DTD1)
Mode: inhibitor
Tested at: 20 µM
Structure (SMILES) | inhibition [%]
O=C(CCn1cnc2c(=O)[nH]cnc21)Nc1ccc(C(=O)O)cc1 | -0.17
CCCCCCCC/C=C\CCCCCCCC(=O)NCc1ccc(O)c(OC)c1 | -2.76
NC(=O)c1nnn(Cc2cc(Cl)c(C(=O)c3ccc(Cl)cc3)c(Cl)c2)c1N | 0.58
O=C1Cc2cc(CCN3CCN(c4nsc5ccccc45)CC3)c(Cl)cc2N1 | 4.39
N[C@@]1(C(=O)O)CC[C@H]2[C@H](C(=O)O)[C@H]21 | 5.77
N#C/C(=C\c1ccc(O)c(O)c1)C(=O)NCCCCc1ccccc1 | 7.41
CC(C)C[C@H](CN)CC(=O)O | 4.64
O=C(O)c1ccc(S(=O)(=O)N(Cc2ccc(OC(F)(F)F)cc2)c2ncc(C(F)(F)F)cc2Cl)cc1 | 9.6
Cc1cccc(Nc2nc(-c3ccncc3)cs2)c1 | 10.1
CC(=O)OCC1=C(C(=O)O)N2C(=O)[C@@H](N)[C@H]2SC1 | -1.34
CN1CCN(C(c2ccccc2)c2ccccc2)CC1 | -0.15
CCN1CCC[C@H]1CNC(=O)c1c(O)c(Cl)cc(Cl)c1OC | -3.03
CN1CCCC1CCSc1ccc(O)cc1 (stereo not drawn) | 0.65
Cc1c(C(=O)NN2CCOCC2)nn(-c2ccc(Cl)cc2Cl)c1-c1ccc(I)cc1 | 6.76
NCCCC[C@@H]1NC(=O)[C@@H](Cc2c[nH]c3ccccc23)NC(=O)[C@H](c2ccccc2)NC(=O)[C@@H]2C[C@@H](OC(=O)NCCN)CN2C(=O)[C@H](Cc2ccccc2)NC(=O)[C@H](Cc2ccc(OCc3ccccc3)cc2)NC1=O | 14.9
CC(=O)N[C@@H]1[C@@H](O)[C@H](O)[C@@H](CO)O[C@@H]1O | 3.74
CN(C)CCCOc1nn(Cc2ccccc2)c2ccccc12 | -1.61
CC(C)[C@H]1[C@@H]2CC[C@@H](C2)[C@@H]1N | 1.35
CCOC(=O)[C@H](CCc1ccccc1)N[C@@H](C)C(=O)N1CCC[C@H]1C(=O)O | -0.7
O=C(/C=C/c1ccc(O)c2c1[C@H](C(=O)O[C@H](Cc1ccc(O)c(O)c1)C(=O)O)[C@@H](c1ccc(O)c(O)c1)O2)O[C@H](Cc1ccc(O)c(O)c1)C(=O)O | 10.1

For quick reference, copied from above (set 5):
Structure (SMILES) | inhibition [%]
N[C@@]1(C(=O)O)CC[C@H]2[C@H](C(=O)O)[C@H]21 | 5.77
O=C(CCn1cnc2c(=O)[nH]cnc21)Nc1ccc(C(=O)O)cc1 | -0.17
CC(=O)N[C@@H]1[C@@H](O)[C@H](O)[C@@H](CO)O[C@@H]1O | 3.74
N#C/C(=C\c1ccc(O)c(O)c1)C(=O)NCCCCc1ccccc1 | 7.41
O=C1Cc2cc(CCN3CCN(c4nsc5ccccc45)CC3)c(Cl)cc2N1 | 4.39
Cc1cccc(Nc2nc(-c3ccncc3)cs2)c1 | 10.1
CCN1CCC[C@H]1CNC(=O)c1c(O)c(Cl)cc(Cl)c1OC | -3.03
